{"data": "Measured values from different studies", "organism": "Staphylococcus aureus", "note": "Protocols differ between the studies behind these lines."}
{"SMILES": "CC(C)C[C@H](NC(=O)[C@@H](NC(=O)[C@H](CCCNC(=N)N)NC(=O)[C@H](CCC(N)=O)NC(=O)[C@H](Cc1ccccc1)NC(=O)[C@H](Cc1ccc(O)cc1)NC(=O)[C@H](CC(N)=O)NC(=O)[C@H](Cc1c[nH]c2ccccc12)NC(=O)[C@@H](NC(=O)[C@H](CCCNC(=N)N)NC(=O)[C@H](CCCCN)NC(=O)[C@@H](N)Cc1ccccc1)C(C)C)C(C)C)C(=O)N[C@H](C(=O)N[C@@H](CCCCN)C(=O)N[C@@H](CCCCN)C(=O)N[C@@H](Cc1ccc(O)cc1)C(N)=O)C(C)C", "test": "broth dilution", "system": "ATCC 25923, Mueller-Hinton broth", "setting": "24 h, 37 °C", "MIC": "100 µM"}
{"SMILES": "CC(C)C[C@@H]1NC(=O)[C@@H](CC(C)C)NC(=O)[C@H](CCN)NC(=O)[C@@H](NC(=O)[C@H](CCN)NC(=O)[C@@H](NC(=O)CCCCN=[N+]=[N-])[C@@H](C)O)CCNC(=O)[C@H]([C@@H](C)O)NC(=O)[C@H](CCN)NC(=O)[C@H](CCN)NC1=O", "test": "broth microdilution", "system": "MRSA USA300, cation-adjusted Mueller-Hinton broth", "setting": "20 to 24 h, 37 °C, 0.002% polysorbate 80", "MIC": "> 16 µg/mL"}
{"SMILES": "CC[C@H](C)[C@H](NC(=O)[C@@H](CCCNC(=N)N)NC(=O)[C@H](CCCNC(=N)N)NC(=O)[C@@H]1CCCN1C(=O)[C@@H]1CCCN1C(=O)[C@H](CCCNC(=N)N)NC(=O)[C@@H]1CCCN1C(=O)[C@H](CCCNC(=N)N)NC(=O)[C@@H]1CCCN1C(=O)[C@H](CC(C)C)NC(=O)[C@H](Cc1ccc(O)cc1)NC(=O)[C@H](Cc1ccc(O)cc1)NC(=O)[C@@H]1CCCN1C(=O)[C@H](CCCCN)NC(=O)[C@H](CC(=O)O)NC(=O)[C@@H](N)C(C)C)C(=O)N[C@@H](Cc1ccc(O)cc1)C(=O)N[C@@H](CC(N)=O)C(=O)N[C@H](CCCNC(=N)N)C(N)=O", "test": "broth microdilution", "system": "DSM 6247", "setting": "18 h, 37 °C, 25% MHB2", "MIC": "> 128 µg/mL"}
{"SMILES": "Cc1cc(C)c2nc3c(Br)cc(Br)c(O)c3nc2c1", "test": "broth microdilution", "system": "MRSA 44", "setting": "16 h, 37 °C", "MIC": "0.15 µM"}
{"SMILES": "CN[C@H](CC(C)C)C(=O)N[C@H]1C(=O)N[C@@H](CC(N)=O)C(=O)N[C@H]2C(=O)N[C@H]3C(=O)N[C@H](C(=O)N[C@H](C(=O)NCc4cn(CC(=O)N[C@H](C(=O)N[C@@H](CCN)C(=O)N[C@H]5CCNC(=O)[C@H]([C@@H](C)O)NC(=O)[C@H](CCN)NC(=O)[C@H](CCN)NC(=O)[C@H](CC(C)C)NC(=O)[C@@H](CC(C)C)NC(=O)[C@H](CCN)NC5=O)[C@@H](C)O)nn4)c4cc(O)cc(O)c4-c4cc3ccc4O)[C@H](O)c3ccc(c(Cl)c3)Oc3cc2cc(c3O[C@@H]2O[C@H](CO)[C@@H](O)[C@H](O)[C@H]2O[C@H]2C[C@](C)(N)[C@H](O)[C@H](C)O2)Oc2ccc(cc2Cl)[C@H]1O", "system": "MSSA ATCC 29213", "MIC": "0.1 µM"}
{"SMILES": "CC(C)C[C@@H]1NC(=O)[C@H](CCCCN)NC(=O)CSC[C@@H](C(=O)N[C@@H](CCCCN)C(N)=O)NC(=O)[C@H](CC(C)C)NC(=O)[C@H](CC(C)C)NC(=O)[C@H](CC(C)C)NC(=O)[C@@H]2CSCC(=O)N[C@@H](CCCCN)C(=O)N[C@@H](CC(C)C)C(=O)N[C@@H](CCCCN)C(=O)N[C@@H](CCCCNC(=O)[C@H](CCCCN)NC1=O)C(=O)N[C@@H](CCCCN)C(=O)N[C@@H](CC(C)C)C(=O)N[C@@H](CC(C)C)C(=O)N2", "test": "broth microdilution", "system": "Newman, methicillin-susceptible", "MIC": "> 128 µg/mL"}
{"SMILES": "CC[C@H](C)[C@H](NC(=O)[C@@H](NC(=O)[C@H](C)NC(=O)[C@@H](NC(=O)[C@H](C)NC(=O)[C@@H]1CCCN1C(=O)CNC(=O)[C@H](C)NC(=O)[C@H](CC(N)=O)NC(=O)[C@H](CCCCN)NC(=O)[C@@H](NC(=O)[C@H](C)NC(=O)[C@H](CC(N)=O)NC(=O)[C@H](CCCNC(=N)N)NC(=O)[C@@H](NC(=O)[C@H](CCCNC(=N)N)NC(=O)[C@H](CCCNC(=N)N)NC(=O)[C@@H](NC(=O)[C@@H](NC(=O)[C@H](CCCCN)NC(=O)[C@H](CCC(=O)O)NC(=O)[C@H](CC(C)C)NC(=O)[C@H](CCCCN)NC(=O)[C@H](CCCCN)NC(=O)[C@H](CC(C)C)NC(=O)[C@@H]1CCCN1C(=O)[C@H](CCCCN)NC(=O)[C@H](Cc1c[nH]c2ccccc12)NC(=O)[C@@H](N)CCCNC(=N)N)C(C)C)C(C)C)C(C)C)C(C)C)C(C)C)C(C)C)C(=O)NCC(=O)N[C@@H](CC(=O)O)C(=O)O", "test": "broth microdilution", "system": "ATCC 29213, Mueller-Hinton broth", "setting": "16 to 20 h, 37 °C", "MIC": "281 µg/mL"}
{"SMILES": "CC[C@H]1OC(=O)[C@H](C)[C@@H](OC(=O)Cc2cccc([N+](=O)[O-])c2)[C@H](C)[C@@H](O[C@@H]2O[C@H](C)C[C@H](N(C)C)[C@H]2O)[C@](C)(OC)C[C@@H](C)C(=O)[C@H](C)[C@@H](O)[C@]1(C)O", "system": "BAA-976 msr(A)", "MIC": "< 1 µg/mL"}
{"SMILES": "Cc1ccc2[nH]c3c(c2c1)CCCC3NCCc1ccc(Br)cc1 (stereo not drawn)", "test": "broth microdilution", "system": "HG001", "MIC": "4 µg/mL"}
{"SMILES": "CC(C)C[C@@H](NC(=O)[C@@H](CCCNC(=N)N)NC(=O)[C@H](N)CCCNC(=N)N)C(=O)N[C@H](CC(C)C)C(=O)N[C@H](CCCNC(=N)N)C(=O)N[C@H](CCCCN)C(=O)N[C@H](CC(C)C)C(=O)N[C@H](CCCCN)C(=O)NCC(=O)N[C@H](CCCCN)C(=O)N[C@H](CCCCN)C(=O)N[C@H](CC(C)C)C(=O)N[C@H](Cc1ccc(O)cc1)C(=O)N[C@H](CC(C)C)C(=O)N[C@H](Cc1ccc(O)cc1)C(=O)N[C@H](Cc1ccccc1)C(=O)N[C@H](CCCCN)C(=O)N[C@H](CC(C)C)C(=O)N[C@H](CCC(N)=O)C(=O)N[C@H](CC(C)C)C(=O)N[C@H](CC(C)C)C(=O)N[C@H](CCCCN)C(=O)N[C@H](CCCCN)C(N)=O", "test": "broth microdilution", "system": "KCTC 1621, Mueller-Hinton broth", "setting": "24 h, 37 °C", "MIC": "4 µM"}
{"SMILES": "CCCCCCCCCCCCCC(=O)N[C@H]1C(=O)N[C@@H](CN)C(=O)N[C@@H](CO)C(=O)N[C@@H](Cc2ccc(O)cc2)C(=O)O[C@H]1C", "system": "SH1000", "setting": "added: phosphatidylethanolamine, molar ratio 2", "MIC": "8 µg/mL"}
{"SMILES": "CC(C)CCCCCCCCC/C=C/C(=O)N[C@@H](CC(N)=O)C(=O)N[C@H]1CNC(=O)[C@@H]2CCCN2C(=O)[C@H](C(C)C)NC(=O)[C@@H](CN)NC(=O)CNC(=O)[C@H](CC(=O)O)NC(=O)CNC(=O)[C@H](CC(=O)O)NC(=O)[C@H](CC(=O)O)NC(=O)[C@H]2CCCCN2C1=O", "test": "broth microdilution", "system": "BR-VRSA strain 880, Mueller-Hinton broth, Mg2+ 10 mg/L", "setting": "16 h, added: Ca2+ 1.0 mM", "MIC": "8 µg/mL"}
{"SMILES": "CC[C@H](C)[C@H](NC(=O)[C@H](Cc1c[nH]c2ccccc12)NC(=O)[C@H](CCCCN)NC(=O)[C@H](CC(C)C)NC(=O)[C@@H](NC(=O)[C@@H](NC(=O)CNC(=O)[C@H](CCCCN)NC(=O)[C@H](Cc1c[nH]cn1)NC(=O)[C@H](CCCCN)NC(=O)[C@H](Cc1c[nH]c2ccccc12)NC(=O)[C@H](C)NC(=O)[C@H](CC(C)C)NC(=O)[C@H](CO)NC(=O)[C@@H](NC(=O)[C@H](Cc1ccc(O)cc1)NC(=O)[C@H](CCCCN)NC(=O)[C@H](CCC(N)=O)NC(=O)CNC(=O)[C@H](CCCCN)NC(=O)[C@@H](NC(=O)[C@H](C)NC(=O)[C@H](CC(C)C)NC(=O)[C@H](Cc1ccccc1)NC(=O)[C@H](CCC(N)=O)NC(=O)[C@@H](NC(=O)[C@H](CC(C)C)NC(=O)[C@H](CCCCN)NC(=O)[C@H](CCSC)NC(=O)[C@H](Cc1ccccc1)NC(=O)[C@H](C)NC(=O)[C@H](C)NC(=O)[C@@H](N)CCSC)[C@@H](C)CC)[C@@H](C)O)C(C)C)[C@@H](C)O)[C@@H](C)CC)C(=O)N[C@@H](CC(N)=O)C(N)=O", "system": "EMRSA 12817", "setting": "24 h, 37 °C", "MIC": "32 µg/mL"}
{"SMILES": "Cc1ccc2nc(C)c(C(=O)C(=O)NCc3ccccc3)n2c1", "test": "microbial growth, broth dilution", "MIC": "> 128 µM"}
{"SMILES": "CN[C@H](CC(C)C)C(=O)N[C@H]1C(=O)N[C@@H](CC(N)=O)C(=O)N[C@H]2C(=O)N[C@H]3C(=O)N[C@H](C(=O)N[C@H](C(=O)NCC(N)=O)c4cc(O)cc(O)c4-c4cc3ccc4O)[C@H](O)c3ccc(c(Cl)c3)Oc3cc2cc(c3O[C@@H]2O[C@H](CO)[C@@H](O)[C@H](O)[C@H]2O[C@H]2C[C@](C)(NCc3ccc(OCc4cn(CC(=O)N[C@H](C(=O)N[C@@H](CCN)C(=O)N[C@H]5CCNC(=O)[C@H]([C@@H](C)O)NC(=O)[C@H](CCN)NC(=O)[C@H](CCN)NC(=O)[C@H](CC(C)C)NC(=O)[C@@H](CC(C)C)NC(=O)[C@H](CCN)NC5=O)[C@@H](C)O)nn4)c(OC)c3)[C@H](O)[C@H](C)O2)Oc2ccc(cc2Cl)[C@H]1O", "test": "broth microdilution", "system": "VISA NRS402, tryptic soy broth", "setting": "20 to 24 h, 37 °C, 0.002% polysorbate 80", "MIC": "8 µg/mL"}
{"SMILES": "COc1ccc2ccc(O)c(/C=N/[C@H]3CCCC[C@H]3/N=C/c3c(O)cccc3OC)c2c1", "test": "bacterial growth, broth microdilution", "system": "vancomycin-intermediate", "MIC": "> 40 µM"}
{"SMILES": "C#CCOc1ccc(CN[C@@]2(C)C[C@H](O[C@H]3[C@H](Oc4c5cc6cc4Oc4ccc(cc4Cl)[C@@H](O)[C@@H](NC(=O)[C@@H](CC(C)C)NC)C(=O)N[C@@H](CC(N)=O)C(=O)N[C@H]6C(=O)N[C@H]4C(=O)N[C@H](C(=O)N[C@H](C(=O)O)c6cc(O)cc(O)c6-c6cc4ccc6O)[C@H](O)c4ccc(c(Cl)c4)O5)O[C@H](CO)[C@@H](O)[C@@H]3O)O[C@@H](C)[C@H]2O)cc1OC", "system": "MRSA USA300", "MIC": "1 µM"}
{"SMILES": "CC1CCN(C(=O)c2cccc(NC(=O)NC3CCCCC3)c2)CC1", "test": "checkerboard, refers to: ceftobiprole", "system": "CRB, PBP4 overexpressor", "setting": "25 µM", "MIC": "> 64 µg/mL"}
{"note": "Excerpt of the above:"}
{"SMILES": "CC[C@H](C)[C@H](NC(=O)[C@@H](NC(=O)[C@H](C)NC(=O)[C@@H](NC(=O)[C@H](C)NC(=O)[C@@H]1CCCN1C(=O)CNC(=O)[C@H](C)NC(=O)[C@H](CC(N)=O)NC(=O)[C@H](CCCCN)NC(=O)[C@@H](NC(=O)[C@H](C)NC(=O)[C@H](CC(N)=O)NC(=O)[C@H](CCCNC(=N)N)NC(=O)[C@@H](NC(=O)[C@H](CCCNC(=N)N)NC(=O)[C@H](CCCNC(=N)N)NC(=O)[C@@H](NC(=O)[C@@H](NC(=O)[C@H](CCCCN)NC(=O)[C@H](CCC(=O)O)NC(=O)[C@H](CC(C)C)NC(=O)[C@H](CCCCN)NC(=O)[C@H](CCCCN)NC(=O)[C@H](CC(C)C)NC(=O)[C@@H]1CCCN1C(=O)[C@H](CCCCN)NC(=O)[C@H](Cc1c[nH]c2ccccc12)NC(=O)[C@@H](N)CCCNC(=N)N)C(C)C)C(C)C)C(C)C)C(C)C)C(C)C)C(C)C)C(=O)NCC(=O)N[C@@H](CC(=O)O)C(=O)O", "test": "broth microdilution", "system": "ATCC 29213, Mueller-Hinton broth", "setting": "16 to 20 h, 37 °C", "MIC": "281 µg/mL"}
{"SMILES": "CC[C@H]1OC(=O)[C@H](C)[C@@H](OC(=O)Cc2cccc([N+](=O)[O-])c2)[C@H](C)[C@@H](O[C@@H]2O[C@H](C)C[C@H](N(C)C)[C@H]2O)[C@](C)(OC)C[C@@H](C)C(=O)[C@H](C)[C@@H](O)[C@]1(C)O", "system": "BAA-976 msr(A)", "MIC": "< 1 µg/mL"}
{"SMILES": "Cc1ccc2[nH]c3c(c2c1)CCCC3NCCc1ccc(Br)cc1 (stereo not drawn)", "test": "broth microdilution", "system": "HG001", "MIC": "4 µg/mL"}
